Results of several laboratories.
Protocols differ between the studies behind these lines. Values joined by “and” are separate records of one study, mostly repeats; a detail may differ. Numbers after ± are the reported error.

Structure (SMILES)	target	assay	test system	conditions	scale	quantity	result
O=C(N/N=C/c1cc[n+](Cc2ccccc2)c2ccccc12)c1cncc(C(=O)N/N=C/c2cc[n+](Cc3ccccc3)c3ccccc23)n1	hp2 hairpin duplex DNA	FRET melting	–	1 µM, with: ds26 10 µM	–	ΔTm	1.1 °C
CN(Cc1ccc(/C=C/C(=O)NO)cc1)CC12CC3CC(CC(C3)C1)C2	dopamine transporter, rat	[11C]β-CFT PET	rat	intraperitoneal, 1 mg/kg, 90 min before tracer	–	DAT occupancy	no effect
Cc1ncsc1-c1ccc(CNC(=O)[C@@H]2C[C@@H](O)CN2C(=O)[C@@H](NC(=O)C2(F)CC2)C(C)(C)C)c(OCCC2CCN(c3nc(N(C)CCNC(=O)C(C)C)nc(N4CCn5nnc(CO)c5C4)n3)CC2)c1	VHL-elongin C-elongin B and BRD9	SPR	immobilized VHL-elongin C-elongin B	–	relative to: binary KD over ternary KD	cooperativity alpha	9.8
Cc1cn(CC(=O)N(CC(=O)N[C@H]2COC[C@@H]2N(CC(=O)NCCOCCOCC(N)=O)C(=O)Cn2cnc3c(N)ncnc32)[C@H]2COC[C@@H]2NC(=O)CN(C(=O)Cn2cnc3c(N)ncnc32)[C@H]2COC[C@@H]2NC(=O)CN(C(=O)Cn2cnc3c(=O)[nH]c(N)nc32)[C@H]2COC[C@@H]2NC(=O)CN(C(=O)Cn2cc(C)c(=O)[nH]c2=O)[C@H]2COC[C@@H]2NC(=O)CN(C(=O)Cn2cnc3c(=O)[nH]c(N)nc32)[C@H]2COC[C@@H]2NC(=O)CN(C(=O)Cn2cc(C)c(=O)[nH]c2=O)[C@H]2COC[C@@H]2NC(=O)CN(C(=O)Cn2cnc3c(N)ncnc32)[C@H]2COC[C@@H]2NC(=O)CN(C(=O)Cn2cnc3c(=O)[nH]c(N)nc32)[C@H]2COC[C@@H]2N)c(=O)[nH]c1=O	mismatched RNA TG	duplex formation, UV melting	–	–	relative to: complementary RNA	ΔTm	-14.4 °C
Cc1[nH]nc2c1N=C(c1ccccc1Cl)c1cnc(N3CCOCC3)cc1N2	P2X receptor, rabbit	radioligand binding	–	10 µM	–	inhibition	-9%
C[n+]1ccc(/C=N/NC(=O)N/N=C/c2cc[n+](C)cc2)cc1	MYC parallel G4 DNA	FRET melting	–	1 µM, DNA 0.2 µM	–	ΔTm	2.4 ± 1.9 °C
CC(=O)NCCN(CC(=O)NCCN(CC(=O)NCCN(CC(=O)NCCC(N)=O)C(=O)C[C@@H](N)Cc1ccccc1)C(=O)C[C@@H](N)CCCNC(=N)N)C(=O)C[C@@H](N)CCCNC(=N)N	HIV-1 TAR RNA	RNA thermal stability, UV melting	–	5 µM, pH 7.5, with: 1 µM TAR RNA	–	melting temperature	64.3 ± 0.1 °C
O=C(CCCCCOc1ccc2ccccc2c1)N[C@@H](CO)C[C@@H](O)c1ccc(-c2ccccc2)cc1	CERT	HPLC-MS/MS, measured: total sphingomyelin	HeLa	1 µM, 24 h	–	sphingomyelin level	958000 pmol/sample and 944000 pmol/sample and 866000 pmol/sample
C=CC(=O)Nc1cccc(Cn2ncc3cnc(Nc4cnn(CCOC)c4)nc32)c1	human PFTAIRE2	KINOMEscan	–	100 nM	relative to: control	binding	100%
CCCCCCc1cccc(C(O)CC(CO)NC(=O)CCCCCCCCCCNC(C)=O)c1 (stereo not shown)	CERT	HPLC-MS/MS, measured: SM C16	HeLa	1 µM, 24 h	–	sphingomyelin level	597000 pmol and 595000 pmol and 469000 pmol
C#CCN1CCN(c2nc(N3CCC(CCOc4cc(-c5scnc5C)ccc4CNC(=O)[C@@H]4C[C@@H](O)CN4C(=O)[C@@H](NC(=O)C4(F)CC4)C(C)(C)C)CC3)nc(N3CCN(C(=O)C4CC4)C3)n2)CC1=O	VHL-elongin C-elongin B and BRD9	SPR	immobilized VHL-elongin C-elongin B	–	relative to: binary KD over ternary KD	cooperativity alpha	6.4
C=CC(=O)N1[C@@H](c2ccc3c(c2)OCO3)c2[nH]c3ccccc3c2C[C@H]1C(=O)N1CCN(C)CC1	human cyclin E1 wild type-3xFLAG:CDK2	co-IP with TMT proteomics, measured: KPNB1	–	concentration not given, Q14974	relative to: wild type DMSO	relative co-enrichment	75%
O=C(N/N=C/c1ccc2c(ccc[n+]2Cc2ccccc2)c1)c1cccc(C(=O)N/N=C/c2ccc3c(ccc[n+]3Cc3ccccc3)c2)n1	MYC parallel G4 DNA	FRET melting	–	1 µM, DNA 0.2 µM	–	ΔTm	11.8 ± 0.5 °C
c1ccc(-c2n[nH]cc2-c2ccnc3ccccc23)nc1	RIO2 (Candida albicans)	kinase binding, MIB/MS competition	Candida albicans lysate	10 µM	relative to: DMSO	log2 fold change	0.24
C=CC(=O)Nc1cc(-c2nn(C3CCN(CCNC(=O)[C@H](C)CCC45CC6CC(CC(C6)C4)C5)CC3)c3ncnc(N)c23)ccc1Oc1ccccc1	Aurora kinases A, B and C	KiNativ profiling	–	2 µM	–	inhibition	15.5%
CCCCCC(O)/C=C/C=O (stereo not shown)	proteome cysteines	IA-probe labelling, competitive isoTOP-ABPP	MDA-MB-231 proteome	–	–	IC50	72 µM and 79 µM and 88 µM and 93 µM and 64 µM and 91 µM and 61 µM
Cc1ncsc1-c1ccc(CNC(=O)[C@@H]2C[C@@H](O)CN2C(=O)[C@@H](NC(=O)C2(F)CC2)C(C)(C)C)c(OCCC2CCN(c3nc(NCC(C)(C)C4(O)CCOC4)nc(N4CCC[C@H]4Cn4ccnn4)n3)CC2)c1 (stereo partly shown)	VHL-elongin C-elongin B and BRD9	SPR	immobilized VHL-elongin C-elongin B	–	relative to: binary KD over ternary KD	cooperativity alpha	8.8
Nc1ncc(-c2cc(-c3cnn(CC(F)(F)F)c3)ncc2F)nc1C(=O)NC1CNCC(F)C1 (stereo not shown)	TXK	KINOMEscan	–	1 µM	relative to: DMSO control	remaining binding	83%
C[n+]1ccc(/C=N/NC(=O)C(=O)N/N=C/c2cc[n+](C)cc2)cc1	hp2 hairpin duplex DNA	FRET melting	–	1 µM	–	ΔTm	0.3 ± 0.1 °C
Fc1ccc(Nc2nc(NC3CCCCC3)c3ccccc3n2)cc1F	β2AR/β1AR ECL2/3 chimera	β-arrestin2 recruitment, antagonist, BRET	–	–	relative to: isoprenaline maximal response	maximal inhibition	-8.8%
C[n+]1cccc2cc(/C=N/NC(=O)N/N=C/c3ccc4c(ccc[n+]4C)c3)ccc21	hp2 hairpin duplex DNA	FRET melting	–	1 µM	–	ΔTm	2.2 ± 0.7 °C
CCCCCCc1cccc([C@H](O)C[C@H](CO)NC(=O)CCCCCCCCCCBr)c1	CERT	HPLC-MS/MS, measured: SM 24:1	HeLa	1 µM, 24 h	–	sphingomyelin level	177000 pmol/sample and 110000 pmol/sample and 171000 pmol/sample
C[n+]1ccc(/C=N/NC(=O)c2ccc3ccc(C(=O)N/N=C/c4cc[n+](C)c5ccccc45)nc3n2)c2ccccc21	hp2 hairpin duplex DNA	FRET melting	–	1 µM	–	ΔTm	0.9 ± 0.4 °C
CNC(NN=Cc1ccc([N+](=O)[O-])o1)=[S+][Au-][Cl]	calf thymus DNA	ethidium bromide displacement, fluorescence quenching	–	up to 50 µM	–	log KSV	4.3
O=C(N/N=C/c1cc[n+](Cc2ccccc2)c2ccccc12)c1cc(C(=O)N/N=C/c2cc[n+](Cc3ccccc3)c3ccccc23)ncn1	MYC parallel G4 DNA	FRET melting	–	1 µM, DNA 0.2 µM	–	ΔTm	6.2 ± 0.6 °C
Nc1ncc2c(n1)-c1c([nH]c3ccc(C4=CCOCC4)cc13)CCC2	FLT3 ITD	scanMAX	–	1 µM	relative to: control	remaining binding	100%
C[n+]1ccc(/C=N/NC(=O)N/N=C/c2cc[n+](C)c3ccccc23)c2ccccc21	MYC parallel G4 DNA	FRET melting	–	1 µM, DNA 0.2 µM	–	ΔTm	2.9 ± 0.9 °C
O=C(Nc1ccccc1)c1ccc(Nc2nnc(-c3ccc(O)cc3)c3ccccc23)cc1	TRPV1	nocifensive response	mouse	intraplantar, 3 µg	–	licking time	0 s

A few entries again:
Structure (SMILES)	target	assay	test system	conditions	scale	quantity	result
c1ccc(-c2n[nH]cc2-c2ccnc3ccccc23)nc1	RIO2 (Candida albicans)	kinase binding, MIB/MS competition	Candida albicans lysate	10 µM	relative to: DMSO	log2 fold change	0.24
C=CC(=O)N1[C@@H](c2ccc3c(c2)OCO3)c2[nH]c3ccccc3c2C[C@H]1C(=O)N1CCN(C)CC1	human cyclin E1 wild type-3xFLAG:CDK2	co-IP with TMT proteomics, measured: KPNB1	–	concentration not given, Q14974	relative to: wild type DMSO	relative co-enrichment	75%
Nc1ncc2c(n1)-c1c([nH]c3ccc(C4=CCOCC4)cc13)CCC2	FLT3 ITD	scanMAX	–	1 µM	relative to: control	remaining binding	100%
